# Assay results gathered from unrelated publications.
# Numbers after ± are the reported error.
# CDC25B: M-phase inducer phosphatase 2 (CDC25B, Homo sapiens, UniProt P30305)
# Ectonucleoside triphosphate diphosphohydrolase 1: Ectonucleoside triphosphate diphosphohydrolase 1 (Homo sapiens, UniProt P49961)
# gag-pol reverse transcriptase: Gag-Pol polyprotein, reverse transcriptase (gag-pol, Human immunodeficiency virus type 1 group M subtype B, UniProt P04585)
# KDM1A: Lysine-specific histone demethylase 1A (KDM1A, Homo sapiens, UniProt O60341)
# Si: Sucrase-isomaltase, intestinal (Si, Rattus norvegicus, UniProt P23739)
Compound,target,test,system,conditions,inhibition
N#Cc1c(F)c(Cl)c2nc(SCC3CCCO3)nc(N)c2c1F (stereo not shown),CDC25B,"enzyme activity, inhibitor, fluorescence",,20 µg/mL,78.2%
CC(=O)c1cnc(N)nc1N1CC[C@H]1c1nn2ccc(Cl)c2c(=O)n1-c1ccccc1,"SCN5A (Homo sapiens, UniProt Q14524)","ion current, inhibitor",CHO,3 µM,< 10%
C[Si](C)(C)C[C@H](CN)CC(=O)O,"Voltage-dependent calcium channel subunit alpha-2/delta-1 (Rattus norvegicus, UniProt P54290)",[3H]gabapentin binding,rat cerebral cortex membranes,"0.39 µM, together with: [3H]gabapentin 20 nM",31%
Cc1ccc(C(=O)Nc2cccc(C(F)(F)F)c2)cc1-c1ccc2c(-c3cnn(C4CC4)c3)n[nH]c2c1,"ALK (Homo sapiens, UniProt Q9UM73)",,,1 µM,93.5%
C[C@@H](N)C1CCN(S(=O)(=O)c2cccc3cnccc23)CC1,"ROCK1 (Homo sapiens, UniProt Q13464)","cell-free assay, competition with immobilised ligand",,10 µM,> 95%
CCCCNC(=O)c1cccc(S(=O)(=O)NC2CC2)c1,Ectonucleoside triphosphate diphosphohydrolase 1,"enzyme activity, inhibitor, absorbance",,100 µM,42%
CCOc1c(C(C)(C)O)sc2cnc(Nc3ccc(N4CCC(N5CC6(COC6)C5)CC4)cc3OC)nc12,"CAMK2B (Homo sapiens, UniProt Q13554)","enzyme activity, inhibitor",,0.1 µM,70%
Oc1c(C(Nc2nc3ccccc3s2)c2cccc(OCc3ccccc3)c2)ccc2cccnc12 (stereo not shown),"Genome polyprotein, NS2B-NS3 protease (Dengue virus type 2, UniProt P14340)","enzyme activity, inhibitor, fluorogenic",,"10 µM, 0.1% CHAPS, together with: Bz-Nle-Lys-Arg-Arg-AMC substrate",87.3 ± 1.25%
CCCC[C@H](C)/C=C(C)/C=C/C(=O)O,"TRPA1 (Homo sapiens, UniProt O75762)","calcium signal, fluorescence",HEK-293T,10 µM,> 50%
CCCCSc1nc(N)c2c(F)c(C#N)c(F)c(F)c2n1,CDC25B,"enzyme activity, inhibitor, fluorescence",,20 µg/mL,94.3%
O=C(O)CCC(=O)c1cccc(NS(=O)(=O)c2c[nH]c3ncccc23)c1,"Aurora kinase A (AURKA, Homo sapiens, UniProt O14965)","enzyme activity, inhibitor, radiometric",,10 µM,44%
Cc1cc(/C=C/C#N)cc(C)c1Oc1cc(Nc2ccc(C#N)cn2)nc2ccncc12,gag-pol reverse transcriptase,"enzyme activity, inhibitor, ELISA",,1 µM,84.9%
CN(Cc1ccccc1)C(=O)c1cccc(S(=O)(=O)N2CCOCC2)c1,Ectonucleoside triphosphate diphosphohydrolase 1,"enzyme activity, inhibitor, absorbance",,100 µM,16%
Cc1ccc(Nc2nc(SCc3cn(Cc4ccccc4Cl)nn3)nc(-c3ccc(C)cc3)c2C#N)cc1,KDM1A,"enzyme activity, inhibitor, fluorescence",,1 µM,83.7%
Oc1ccc([C@H]2Oc3cc(O)cc(O)c3C[C@H]2O)cc1,Si,"enzyme activity, inhibitor",rat intestinal brush border vesicles,10 µM,31.5%
O=C(O)c1cccc(S(=O)(=O)NC2CC2)c1,Ectonucleoside triphosphate diphosphohydrolase 1,"enzyme activity, inhibitor, absorbance",,100 µM,25%
CC(C)=CCC/C(C)=C/CC/C(C)=C/CC/C(C)=C\CC1=C(C)C(=O)c2ccccc2C1=O,"IRAK1 (Homo sapiens, UniProt P51617)","enzyme activity, inhibitor",,10 µM,18%
N#CCSc1nc(N)c2c(F)c(C#N)c(F)c(F)c2n1,CDC25B,"enzyme activity, inhibitor, fluorescence",,20 µg/mL,80.4%
O=C(O[C@@H]1Cc2c(O)cc(O)cc2O[C@@H]1c1ccc(O)c(O)c1)c1ccc(O)cc1,Si,"enzyme activity, inhibitor",rat intestinal brush border vesicles,10 µM,41.2%
Cc1nn(CCO)c2ncc(C(=O)c3cc(Cl)ccc3O)cc12,"Heat shock protein 90, N-terminal domain (Plasmodium falciparum, UniProt Q8IC05)","ligand displacement, FP",,10 µM,93%
COc1ccc(Cl)cc1NC(=O)Nc1cc(C)nc2ccccc12,"Trypanothione synthetase (Trypanosoma cruzi, UniProt Q9GT49)","enzyme activity, inhibitor, absorbance",,25 µM,6.2%
COCCOC(=O)Nc1ccc2c(c1)c(Cc1ccc(C(=O)NS(=O)(=O)c3ccc(C(F)(F)F)cc3)cc1OC)cn2C,"Tumor necrosis factor receptor superfamily member 1A (Homo sapiens, UniProt P19438)","NF-κB reporter gene, luciferase reporter",HEK293 cells,"up to 250 nM, together with: TNF 10 ng/mL",35 to 42%
COc1ccc(-c2csc3ncnc(NCCCN4CCN(c5ccccc5)CC4)c23)cc1,"DRD3 (Homo sapiens, UniProt P35462)","cell-free assay, inhibitor",,10 µM,> 90%
COCCSc1nc(N)c2c(F)c(C#N)c(F)c(Cl)c2n1,CDC25B,"enzyme activity, inhibitor, fluorescence",,20 µg/mL,98.6%
CC(C)(C)OC(=O)NCc1cn([C@H]2O[C@H](CO)[C@@H](O)[C@H](O)[C@H]2O)nn1,"GAA (Homo sapiens, UniProt P10253)","enzyme activity, inhibitor, fluorescence",,"1.43 mM, pH 4, lysate",52%
Cc1ccc(Nc2nc(SCc3cn(Cc4ccccc4Cl)nn3)nc(-c3ccccc3)c2C#N)cc1,KDM1A,"enzyme activity, inhibitor, fluorescence",,1 µM,21.3%
N#Cc1c(F)c(Cl)c2nc(SCc3ccccc3)nc(N)c2c1F,CDC25B,"enzyme activity, inhibitor, fluorescence",,20 µg/mL,99.7%
COc1cc(C(=O)NC2CCC(N3CCN(CC4CCC5(CCCC5)C4)CC3)CC2)c(F)cc1Nc1ncc2c(n1)N(C1CCCC1(F)F)CC(F)(F)C(=O)N2C (stereo not shown),"FES (Homo sapiens, UniProt P07332)","cell-free assay, TR-FRET",,10 µM,4.79%
Cc1ncc(/C=N/NC(=O)c2cc3c(s2)CCCC3)cn1,"dxs (Deinococcus radiodurans, UniProt Q9RUB5)","enzyme activity, inhibitor",,120 µM,31%
COCCOCCSc1nc(N)c2c(F)c(C#N)c(F)c(Cl)c2n1,CDC25B,"enzyme activity, inhibitor, fluorescence",,20 µg/mL,20.4%
O=C1NCCC(O)c2cc(Cl)c(Cl)cc21 (stereo not shown),"PARP1 (Homo sapiens, UniProt P09874)","enzyme activity, inhibitor",,10 µM,0%
CCNC(=O)Nc1ccc(OCc2ccccc2COc2ccc(NC(=O)NCC)cc2)cc1,"Transcription antitermination protein NusB, with NusE (nusB, Bacillus subtilis, UniProt P54520)","protein-protein interaction, inhibitor, competitive ELISA",,"25 µM, 15 min preincubation, 37 °C, together with: 200 nM GST-NusE",65%
Cc1c(Br)cnc2c1NC(=O)c1cccnc1N2C1CC1,gag-pol reverse transcriptase,"enzyme activity, inhibitor, ELISA",,10 µM,> 85%
OCc1ccccc1S[C@@H]1O[C@H](CO)[C@H](O)[C@H](O)[C@H]1O,"SLC5A2 (Homo sapiens, UniProt P31639)","transporter uptake, inhibitor, radiometric",CHO,10 µM,26.7%
O=C1N[C@@H](CO)C[C@@H](O)c2ccccc21 (relative stereo),"PARP3 (Homo sapiens, UniProt Q9Y6F1)","enzyme activity, inhibitor",,10 µM,51%
C=CCOC(=O)NCCCC[C@H](NC(=O)[C@H](Cc1ccc(O)cc1)NC(=O)CNC(=O)CNC(=O)[C@@H](NC(=O)[C@H](CO)NC(=O)[C@@H]1CCCN1C(=O)[C@H](C)NC(=O)[C@H](CO)NC(=O)[C@H](CCSC)NC(=O)[C@H](CCCNC(=N)N)NC(=O)[C@H](C)NC(=O)[C@H](C)NC(=O)[C@H](CCCCN)NC(C)=O)[C@@H](C)O)C(=O)NN,"EZH2 (Homo sapiens, UniProt Q15910)","enzyme activity, inhibitor, radiometric",,50 µM,53%
Nc1nc(Nc2ccccc2)sc1C(=O)c1ccccc1,"GSK3B (Homo sapiens, UniProt P49841)","enzyme activity, inhibitor, kinase selectivity panel",,10 µM,inhibited

# Excerpt of the above:
Compound,target,test,system,conditions,inhibition
O=C(O)CCC(=O)c1cccc(NS(=O)(=O)c2c[nH]c3ncccc23)c1,"Aurora kinase A (AURKA, Homo sapiens, UniProt O14965)","enzyme activity, inhibitor, radiometric",,10 µM,44%
CC(=O)c1cnc(N)nc1N1CC[C@H]1c1nn2ccc(Cl)c2c(=O)n1-c1ccccc1,"SCN5A (Homo sapiens, UniProt Q14524)","ion current, inhibitor",CHO,3 µM,< 10%
CCOc1c(C(C)(C)O)sc2cnc(Nc3ccc(N4CCC(N5CC6(COC6)C5)CC4)cc3OC)nc12,"CAMK2B (Homo sapiens, UniProt Q13554)","enzyme activity, inhibitor",,0.1 µM,70%
C[C@@H](N)C1CCN(S(=O)(=O)c2cccc3cnccc23)CC1,"ROCK1 (Homo sapiens, UniProt Q13464)","cell-free assay, competition with immobilised ligand",,10 µM,> 95%
